Assay results collected from several papers.
Protocols differ between the studies behind these lines. ± gives the spread as reported.
PPARG: Peroxisome proliferator-activated receptor gamma (PPARG, Homo sapiens, UniProt P37231)
BCHE: Cholinesterase (BCHE, Equus caballus, UniProt P81908)
Sequence of UniProt P81908 (whole entry, looked up): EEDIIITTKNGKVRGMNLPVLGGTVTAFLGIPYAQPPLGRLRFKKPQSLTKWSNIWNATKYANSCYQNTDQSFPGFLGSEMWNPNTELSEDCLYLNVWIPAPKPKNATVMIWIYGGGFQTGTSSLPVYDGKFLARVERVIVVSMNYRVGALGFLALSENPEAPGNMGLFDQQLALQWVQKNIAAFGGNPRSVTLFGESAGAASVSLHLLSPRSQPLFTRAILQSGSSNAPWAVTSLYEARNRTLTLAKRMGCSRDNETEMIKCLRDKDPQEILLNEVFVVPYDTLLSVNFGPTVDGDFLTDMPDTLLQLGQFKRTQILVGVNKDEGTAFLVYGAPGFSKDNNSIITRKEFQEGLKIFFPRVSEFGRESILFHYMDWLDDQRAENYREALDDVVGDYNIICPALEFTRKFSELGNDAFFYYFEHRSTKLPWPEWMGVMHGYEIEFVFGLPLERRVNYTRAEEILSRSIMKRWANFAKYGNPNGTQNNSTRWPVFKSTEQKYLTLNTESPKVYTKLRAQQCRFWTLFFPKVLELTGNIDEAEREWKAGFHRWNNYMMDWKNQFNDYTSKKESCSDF
HTR2C: 5-hydroxytryptamine receptor 2C (HTR2C, Homo sapiens, UniProt P28335)
Sequence of UniProt P28335 (whole entry, looked up): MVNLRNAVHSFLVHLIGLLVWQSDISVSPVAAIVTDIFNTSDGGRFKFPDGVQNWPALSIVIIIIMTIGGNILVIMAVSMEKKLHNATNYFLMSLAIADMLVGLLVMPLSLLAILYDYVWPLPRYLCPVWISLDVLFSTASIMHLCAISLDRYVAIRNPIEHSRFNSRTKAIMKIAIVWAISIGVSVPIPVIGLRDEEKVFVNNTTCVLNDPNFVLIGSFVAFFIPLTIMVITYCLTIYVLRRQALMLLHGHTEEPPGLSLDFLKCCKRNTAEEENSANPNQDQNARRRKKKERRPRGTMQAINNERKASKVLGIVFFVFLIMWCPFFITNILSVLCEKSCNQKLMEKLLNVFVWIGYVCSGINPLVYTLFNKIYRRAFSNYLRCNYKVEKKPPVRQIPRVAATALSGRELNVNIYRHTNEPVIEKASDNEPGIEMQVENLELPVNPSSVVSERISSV
Sequence of UniProt P06493 (whole entry, looked up): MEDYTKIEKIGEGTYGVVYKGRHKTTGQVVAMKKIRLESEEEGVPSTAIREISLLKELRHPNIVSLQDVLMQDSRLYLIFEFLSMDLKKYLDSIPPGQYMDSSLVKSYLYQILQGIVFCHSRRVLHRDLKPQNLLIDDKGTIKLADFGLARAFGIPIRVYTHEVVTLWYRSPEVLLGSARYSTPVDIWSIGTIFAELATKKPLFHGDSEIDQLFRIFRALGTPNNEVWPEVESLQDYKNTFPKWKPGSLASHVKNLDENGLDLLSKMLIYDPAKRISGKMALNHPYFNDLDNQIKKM
Sequence of UniProt Q13233 (whole entry, looked up): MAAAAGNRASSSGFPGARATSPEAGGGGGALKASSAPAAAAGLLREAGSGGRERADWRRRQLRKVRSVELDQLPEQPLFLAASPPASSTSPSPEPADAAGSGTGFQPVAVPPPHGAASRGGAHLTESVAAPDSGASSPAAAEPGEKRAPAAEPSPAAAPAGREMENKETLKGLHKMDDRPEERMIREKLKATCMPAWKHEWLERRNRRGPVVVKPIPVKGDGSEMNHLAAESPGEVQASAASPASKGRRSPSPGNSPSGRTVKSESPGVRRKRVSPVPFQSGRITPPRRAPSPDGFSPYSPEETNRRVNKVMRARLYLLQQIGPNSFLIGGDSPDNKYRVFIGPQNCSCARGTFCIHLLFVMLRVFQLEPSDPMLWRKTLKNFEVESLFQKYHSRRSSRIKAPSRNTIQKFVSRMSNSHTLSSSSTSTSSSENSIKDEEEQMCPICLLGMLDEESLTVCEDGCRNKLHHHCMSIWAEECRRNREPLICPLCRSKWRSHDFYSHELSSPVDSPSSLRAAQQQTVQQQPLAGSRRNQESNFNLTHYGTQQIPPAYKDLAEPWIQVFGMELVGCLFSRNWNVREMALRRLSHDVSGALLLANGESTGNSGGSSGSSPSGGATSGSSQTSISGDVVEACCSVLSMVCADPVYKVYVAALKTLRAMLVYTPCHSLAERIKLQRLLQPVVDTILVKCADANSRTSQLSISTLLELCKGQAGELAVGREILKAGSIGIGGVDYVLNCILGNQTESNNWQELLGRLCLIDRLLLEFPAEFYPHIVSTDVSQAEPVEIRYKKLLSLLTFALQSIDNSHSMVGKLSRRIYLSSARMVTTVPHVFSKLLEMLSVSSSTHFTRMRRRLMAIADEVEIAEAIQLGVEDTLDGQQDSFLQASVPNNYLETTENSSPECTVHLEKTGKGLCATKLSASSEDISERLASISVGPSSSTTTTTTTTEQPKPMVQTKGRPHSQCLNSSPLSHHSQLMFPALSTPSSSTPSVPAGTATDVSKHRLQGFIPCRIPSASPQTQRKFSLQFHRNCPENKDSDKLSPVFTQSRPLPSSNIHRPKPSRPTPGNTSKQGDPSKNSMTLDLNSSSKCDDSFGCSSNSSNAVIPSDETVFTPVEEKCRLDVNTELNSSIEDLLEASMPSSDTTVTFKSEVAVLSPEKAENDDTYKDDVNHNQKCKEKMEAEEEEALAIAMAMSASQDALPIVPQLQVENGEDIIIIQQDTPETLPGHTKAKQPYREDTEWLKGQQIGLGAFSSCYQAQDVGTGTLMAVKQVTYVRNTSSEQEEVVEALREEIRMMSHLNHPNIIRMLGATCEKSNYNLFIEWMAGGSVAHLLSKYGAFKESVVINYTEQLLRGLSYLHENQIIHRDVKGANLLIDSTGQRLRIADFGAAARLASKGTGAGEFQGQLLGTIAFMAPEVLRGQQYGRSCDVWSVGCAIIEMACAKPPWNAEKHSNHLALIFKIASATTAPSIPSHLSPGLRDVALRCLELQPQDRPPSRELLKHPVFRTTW
Sequence of UniProt Q8N4C8 (whole entry, looked up): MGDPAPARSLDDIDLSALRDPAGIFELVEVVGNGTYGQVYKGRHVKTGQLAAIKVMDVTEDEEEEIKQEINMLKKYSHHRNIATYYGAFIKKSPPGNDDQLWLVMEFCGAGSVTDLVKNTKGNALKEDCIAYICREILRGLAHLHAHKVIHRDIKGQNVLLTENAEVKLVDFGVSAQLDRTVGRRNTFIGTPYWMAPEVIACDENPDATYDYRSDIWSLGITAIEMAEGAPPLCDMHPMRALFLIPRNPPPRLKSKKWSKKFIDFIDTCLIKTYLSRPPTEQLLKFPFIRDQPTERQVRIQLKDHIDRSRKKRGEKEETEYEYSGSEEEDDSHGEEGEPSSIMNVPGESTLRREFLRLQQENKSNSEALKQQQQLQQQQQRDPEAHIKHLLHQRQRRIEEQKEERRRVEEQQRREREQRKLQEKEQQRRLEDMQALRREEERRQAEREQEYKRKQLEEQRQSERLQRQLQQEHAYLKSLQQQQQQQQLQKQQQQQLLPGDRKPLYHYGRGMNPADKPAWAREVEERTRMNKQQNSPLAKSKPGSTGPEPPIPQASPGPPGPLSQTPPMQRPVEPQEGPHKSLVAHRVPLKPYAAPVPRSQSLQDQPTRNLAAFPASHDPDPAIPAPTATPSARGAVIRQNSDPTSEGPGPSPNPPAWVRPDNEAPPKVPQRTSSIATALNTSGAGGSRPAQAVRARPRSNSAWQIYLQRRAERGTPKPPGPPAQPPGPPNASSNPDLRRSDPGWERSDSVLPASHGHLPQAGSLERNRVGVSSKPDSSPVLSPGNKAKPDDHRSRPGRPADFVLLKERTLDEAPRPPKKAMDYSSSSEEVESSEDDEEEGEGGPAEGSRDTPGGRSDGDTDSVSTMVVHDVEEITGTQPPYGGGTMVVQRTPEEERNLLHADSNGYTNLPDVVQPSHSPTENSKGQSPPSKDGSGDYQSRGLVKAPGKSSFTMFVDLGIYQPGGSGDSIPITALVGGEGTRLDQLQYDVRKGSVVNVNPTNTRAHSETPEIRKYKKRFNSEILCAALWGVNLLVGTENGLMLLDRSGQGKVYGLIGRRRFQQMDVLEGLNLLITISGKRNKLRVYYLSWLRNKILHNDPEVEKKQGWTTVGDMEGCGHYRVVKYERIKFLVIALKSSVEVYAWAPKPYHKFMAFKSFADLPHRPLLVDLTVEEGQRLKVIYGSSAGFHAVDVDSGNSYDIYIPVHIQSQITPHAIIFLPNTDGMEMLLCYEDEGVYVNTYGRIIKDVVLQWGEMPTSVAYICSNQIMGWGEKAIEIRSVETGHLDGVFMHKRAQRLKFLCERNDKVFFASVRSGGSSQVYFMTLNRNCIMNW
Sequence of UniProt P30411 (whole entry, looked up): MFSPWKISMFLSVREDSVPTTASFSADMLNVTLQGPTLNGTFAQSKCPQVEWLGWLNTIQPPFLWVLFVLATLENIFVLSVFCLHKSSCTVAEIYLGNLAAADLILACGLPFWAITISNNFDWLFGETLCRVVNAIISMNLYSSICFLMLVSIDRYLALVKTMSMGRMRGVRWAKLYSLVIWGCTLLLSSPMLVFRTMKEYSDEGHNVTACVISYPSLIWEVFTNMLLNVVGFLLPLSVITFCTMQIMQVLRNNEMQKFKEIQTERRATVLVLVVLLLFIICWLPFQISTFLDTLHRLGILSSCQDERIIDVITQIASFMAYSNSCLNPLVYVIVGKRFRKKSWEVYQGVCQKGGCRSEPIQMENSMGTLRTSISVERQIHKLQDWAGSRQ
Sequence of UniProt P46663 (whole entry, looked up): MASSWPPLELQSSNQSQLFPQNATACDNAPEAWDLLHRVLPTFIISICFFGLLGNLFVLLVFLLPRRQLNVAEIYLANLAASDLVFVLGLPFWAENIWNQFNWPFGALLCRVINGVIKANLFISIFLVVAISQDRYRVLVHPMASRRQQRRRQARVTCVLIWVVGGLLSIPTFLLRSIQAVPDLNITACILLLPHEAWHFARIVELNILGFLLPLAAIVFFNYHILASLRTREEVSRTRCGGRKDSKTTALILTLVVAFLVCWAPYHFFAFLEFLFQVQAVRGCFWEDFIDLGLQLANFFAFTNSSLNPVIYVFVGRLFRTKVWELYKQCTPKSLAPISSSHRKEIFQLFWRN

Compound = Cc1nc2cccc(OCC(C)(C)C(=O)NC(C)C)c2c(N)c1C(=O)[O-].[Na+]; tested on = Salmonella typhimurium; assay = Ames plate incorporation; test system = TA98; setting = 0.13 mg/plate, together with: with rat liver S9; endpoint = revertant colonies; result = 41 ± 5 colonies/plate
Compound = O=C1NC2(CC2)COc2ncc(F)cc2[C@H]2COCCN2c2ccn3ncc1c3n2; test system = Sprague-Dawley rat, female, plasma; setting = oral, 10 mg/kg/day, end of recovery, 4-week repeated-dose toxicity; endpoint = prothrombin time; result = 8.2 ± 0.4 s
Compound = N[C@H](C(=O)N1CCCC1)C1CCN(c2nccc3c(-c4ncc(Cl)cc4Cl)cccc23)CC1; tested on = PPARG; assay = ligand displacement; setting = 10 µM; endpoint = inhibition; result = 0%
Compound = O=C(O)c1ccccc1/C=N/Nc1nc(-c2ccccc2Cl)cs1; tested on = Misshapen-like kinase 1 (MINK1, Homo sapiens, UniProt Q8N4C8); assay = enzyme activity, inhibitor; setting = 1 µM; endpoint = inhibition; result = 12.8%
Compound = CCOC(=O)[C@](CC)(CCCSCCOCCOCCNC(=O)c1ccc(-c2c3ccc(=N)c(S(=O)(=O)O)c-3oc3c(S(=O)(=O)O)c(N)ccc23)c(C(=O)O)c1)NC(=O)c1ccc(C2CC2)c(Cc2ccc(F)cc2)n1; tested on = PPARG; assay = ligand displacement, radioligand; setting = 10 µM; endpoint = inhibition; result = 29%
Compound = CN[C@@H]1[C@H](O)[C@H](NC)[C@H]2O[C@]3(O)[C@H](O[C@@H]2[C@H]1O)O[C@H](C)C[C@H]3NC(=O)Cc1ccc(Cl)cn1; tested on = B2 bradykinin receptor (BDKRB2, Homo sapiens, UniProt P30411); assay = ligand displacement, radioligand; setting = 10 µM; endpoint = inhibition; result = 2%
Compound = CC(C)(C)C(=O)OCOP(=O)(OCOC(=O)C(C)(C)C)C1CCCN(O)C1=O (stereo not drawn); tested on = SF-268; endpoint = GI50; result = 441 nM
Compound = CC[C@H](C)[C@H](NC(=O)[C@H](CCCCN)NC(=O)CNC(=O)[C@H](CC(C)C)NC(=O)[C@H](Cc1ccccc1)NC(=O)[C@H](CCCCN)NC(=O)[C@H](CO)NC(=O)[C@H](Cc1ccccc1)NC(=O)[C@H](Cc1c[nH]c2ccccc12)NC(=O)[C@H](CCC(N)=O)NC(=O)[C@@H](NC(=O)[C@H](Cc1ccccc1)NC(=O)CCCCCNC(=O)CN1CCN(CC(=O)O)CCN(CC(=O)O)CCN(CC(=O)O)CC1)C(C)C)C(=O)N[C@@H](CCC(=O)O)C(=O)N1CCC[C@H]1C(=O)N[C@@H](CC(=O)O)C(=O)N[C@H](C(=O)N[C@@H](CO)C(=O)N[C@@H](CCC(N)=O)C(=O)N[C@H](C(=O)N[C@@H](CCC(N)=O)C(=O)N[C@@H](CC(=O)O)C(=O)N1CCC[C@H]1C(=O)N[C@@H](CC(N)=O)C(=O)N[C@@H](CC(=O)O)C(=O)N[C@@H](CCC(N)=O)C(=O)N[C@@H](Cc1ccc(O)cc1)C(=O)N[C@@H](CCC(=O)O)C(=O)N1CCC[C@H]1C(=O)N[C@@H](Cc1ccccc1)C(=O)O)C(C)C)C(C)C [copper-64 labelled]; test system = GZMB-/- mouse bearing CT26 tumour, spleen; setting = dose not given, 2 h, checkpoint inhibitor-treated; endpoint = tissue uptake; result = 0.64 ± 0.1 %ID/g
Compound = CCC1CC(c2ccc(C(=O)O)cc2C)=NN1c1ccc(C#N)c(Cl)c1 (stereo not drawn); tested on = Histone-lysine N-methyltransferase SETD2 (SETD2, Homo sapiens, UniProt Q9BYW2); assay = enzyme activity, inhibitor; setting = 10 µM; endpoint = inhibition; result = 17%
Compound = CC[C@H](C)[C@H](NC(=O)[C@H](CO)NC(=O)[C@H](Cc1ccc(O)cc1)NC(=O)[C@H](Cc1ccc(O)cc1)NC(=O)[C@H](CC(N)=O)NC(=O)CNC(=O)[C@H](CO)NC(=O)[C@H](Cc1ccc(O)cc1)NC(=O)[C@H](CO)NC(=O)[C@H](CO)NC(=O)[C@H](CC(N)=O)NC(=O)COCCOCCNC(=O)CN1CCN(CC(=O)O)CCN(CC(=O)O)CCN(CC(=O)O)CC1)C(=O)N[C@@H](CC(C)C)C(N)=O [copper-64 labelled]; assay = dynamic PET; test system = tamoxifen-induced PDAC mouse model, pancreas; setting = 0.1 min, CLDN4-expressing tumours; endpoint = maximum pancreas uptake; result = 1.26 %IA/cc
Compound = NC1CC1; tested on = BCHE; assay = enzyme activity, inhibitor, Ellman; setting = 20 µM; endpoint = inhibition; result = 32%
Compound = CC(=O)NCCCC[C@@H]1NC(=O)[C@H](Cc2c[nH]c3c(C)cccc23)NC(=O)[C@H]([C@@H](C)O)NC(=O)[C@H](CC(N)=O)NC(=O)[C@@H](NC(C)=O)C(C)(C)SSC(C)(C)[C@@H](C(=O)N[C@@H](Cc2ccc(OCCN)cc2)C(=O)N[C@@H](Cc2ccc3ccccc3c2)C(=O)NC2(C(=O)N[C@@H](CCC(=O)O)C(=O)N[C@@H](CC(N)=O)C(=O)N[C@@H](Cc3cccnc3)C(=O)N(C)CC(N)=O)CCOCC2)NC1=O; tested on = Solute carrier organic anion transporter family member 1B1 (SLCO1B1, Homo sapiens, UniProt Q9Y6L6); assay = substrate; test system = HEK293 overexpressing transporter; setting = 5 µM, 30 min, together with: 25 µM rifampicin; endpoint = uptake rate; result = 0.0686 ± 0.0116 pmol/mg/min
Compound = CN[C@@H]1[C@H](O)[C@H](NC)[C@H]2O[C@]3(O)[C@H](O[C@@H]2[C@H]1O)O[C@H](C)C[C@H]3NC(=O)Cc1cc(Cl)ccn1; tested on = B1 bradykinin receptor (BDKRB1, Homo sapiens, UniProt P46663); assay = ligand displacement, radioligand; setting = 10 µM; endpoint = inhibition; result = 4%
Compound = Fc1ccccc1CN1CCNCC1; tested on = BCHE; assay = enzyme activity, inhibitor, Ellman; setting = 20 µM; endpoint = inhibition; result = 36.7%
Compound = COc1ccccc1-c1n[nH]c2nc(N[C@H]3CC[C@H](NS(=O)(=O)CC(C)C)CC3)ncc12; assay = bead binding, competition bead pull-down, refers to: LINJ.36.6530; test system = Leishmania donovani extract; setting = 10 µM; how to read = relative to: vehicle; endpoint = relative abundance; result = 0.77
Compound = CC(C)CC(O)(CC(C)C)c1cn(C(=O)N2CCCC2)nn1; tested on = Alpha/beta hydrolase domain-containing protein 17B (Abhd17b, Mus musculus, UniProt Q7M759); assay = probe labelling, inhibitor, refers to: Fam108b1; test system = mouse, brain; setting = i.p., 0.8 mg/kg, 4 h, protein level; how to read = relative to: treated over vehicle mice, lower = stronger inhibition; endpoint = activity ratio-of-ratios; result = 1.75
Compound = CN(C)[C@H]1C[C@@]23CC[C@@]4(O2)C(=CC[C@]2(C)[C@@H](c5ccc6ccncc6c5)CC[C@H]24)C=C3[C@@H](O)[C@@H]1O; tested on = Mitogen-activated protein kinase kinase kinase 1 (MAP3K1, Homo sapiens, UniProt Q13233); assay = ATP probe labelling, inhibitor, KiNativ profiling; setting = 0.1 µM; endpoint = inhibition; result = 14.7%
Compound = CS(C)(=O)=Nc1ccc(-c2ccc(-c3nc4cc(O[C@@H]5CO[C@H]6[C@@H]5OC[C@H]6O)[nH]c4cc3F)cc2)cc1; tested on = Serine/threonine-protein kinase PLK2 (PLK2, Homo sapiens, UniProt Q9NYY3); assay = enzyme activity, inhibitor; setting = 10 µM; endpoint = inhibition; result = -11%
Compound = Cc1cc(OCC(=O)NCCNC(=O)c2cccc(COc3ccccc3C(N)=O)c2)c2c3c(c(=O)oc2c1)CCC3; tested on = Poly [ADP-ribose] polymerase 2 (PARP2, Homo sapiens, UniProt Q9UGN5); assay = enzyme activity, inhibitor; setting = 50 nM; endpoint = inhibition; result = 79%
Compound = C[C@H](NCc1ccc(-c2ccc(C(F)(F)F)cc2)cc1)C(N)=O; tested on = Angiotensin-converting enzyme (ACE, Oryctolagus cuniculus, UniProt P12822); assay = enzyme activity; setting = 1 µM, together with: 500 µM FAPGG; endpoint = inhibition; result = 0%
Compound = Cc1cc(-c2ccc3ccccc3c2)nnc1NCCN1CCN(C)CC1; tested on = Organic anion transporter 3 (SLC22A8, Homo sapiens, UniProt Q8TCC7); assay = transport; setting = concentration not given; endpoint = inhibition; result = negative
Compound = c1ccc2[nH]ccc2c1; tested on = BCHE; assay = enzyme activity, inhibitor, Ellman; setting = 20 µM; endpoint = inhibition; result = 44.7%
Compound = O=C1NC(=O)c2c1c1cc(F)c[n+]3c1c1c2c2cc(O)ccc2[n]1[Ru-4]312([N]=C=S)[S+]3CC[S+]1CC[S+]2CC3 (stereo not drawn); tested on = Cyclin-dependent kinase 1, with cyclin B (CDK1, Homo sapiens, UniProt P06493); assay = enzyme activity; setting = 100 nM, human enzyme, together with: 10 µM ATP; how to read = relative to: untreated; endpoint = remaining activity; result = 97%
Compound = O=C(CN1CN(c2ccccc2)C2(CCN(C(=O)c3cnc4[nH]ncc4c3)CC2)C1=O)NCC(F)(F)F; tested on = Casein kinase I isoform gamma-1 (CSNK1G1, Homo sapiens, UniProt Q9HCP0); assay = inhibitor; setting = concentration not given; endpoint = inhibition; result = < 50%
Compound = COc1ccccc1N1CCN(CCCCN2CCCc3ccccc3C2=O)CC1; tested on = HTR2C; assay = radioligand binding; setting = concentration not given, together with: [3H]mesulergine; endpoint = inhibition; result = 77.1%
Compound = Cc1cc(Nc2nc(C[C@@]3(C(=O)O)CCN(Cc4cccc(Cl)c4F)[C@H](C)C3)cc(C)c2F)[nH]n1; tested on = HTR2C; assay = inhibitor; setting = 10 µM; endpoint = inhibition; result = 1.46%
Compound = Cc1cc(C(=O)Nc2nc3cccc(C)c3n2[C@H]2CCCCN(C(=O)/C=C/CN(C)C)C2)ccn1; tested on = Trypanosoma brucei; assay = propidium iodide flow cytometry; test system = bloodstream form; setting = concentration not given, 6 h; endpoint = cells in S phase; result = 20.5%
Compound = CN(/N=C/c1ccccc1C(=O)O)c1nc(-c2ccccc2Cl)cs1; tested on = Cyclin-dependent kinase 1, with cyclin A2 (CDK1, Homo sapiens, UniProt P06493); assay = enzyme activity, inhibitor; setting = 1 µM; endpoint = inhibition; result = -8.43%
Compound = COc1ccc(F)cc1S(=O)(=O)Nc1cnc2c(c1)C(=O)NCCO2; tested on = HTR2C; assay = ligand displacement, radioligand; setting = 10 µM; endpoint = inhibition; result = -4%
Compound = COc1ccccc1-c1n[nH]c2nc(NC3CCN(C(=O)Cc4ccc(F)cc4F)CC3)ncc12; assay = bead binding, competition bead pull-down, refers to: LINJ.36.2790; test system = Leishmania donovani axenic amastigote extract; setting = 10 µM; how to read = relative to: vehicle; endpoint = relative abundance; result = 0.82
Compound = CC(C)[C@H]1NC(=O)C[C@H]2/C=C/CCSSC[C@@H](NC1=O)C(=O)N[C@H](Cc1cccc3ccccc13)C(=O)NCC(=O)O2; tested on = Tyrosine-protein kinase ABL1 (ABL1, Homo sapiens, UniProt P00519, T315I); assay = enzyme activity, inhibitor; setting = 10 µM; endpoint = inhibition; result = 0.6%
Compound = CC(=O)NC[C@@H]1[C@@H](O)C[C@H]2[C@H](O)C[C@@H](CO)N12; tested on = Spodoptera litura β-N-acetylglucosaminidase; test system = crude enzyme; setting = 0.214 µM, run 1, together with: p-nitrophenyl GlcNAc; endpoint = inhibition; result = 29.3%
Compound = OC[C@H]1O[C@@H](Oc2cccc(-c3ccccc3)c2)[C@H](O)[C@@H](O)[C@H]1O; tested on = Adhesin FmlH, lectin domain (Escherichia coli, UniProt Q1RBS0); assay = binding to desialylated mucin, ELISA competition; test system = UPEC UTI89; setting = 100 µM; endpoint = inhibition; result = 56.9 ± 6.2%
